Assay results pooled from the literature.
Numbered parts are unrelated; each lists some results of a single study. Changes are numbered by the printed parent chain.

Set 1
Target: RNA binding protein fox-1 homolog 2, RRM domain, GST-SBP tag (RBFOX2, Homo sapiens, UniProt O43251-10, residues 100-194)
Method: RNA Bind-n-Seq
Molecule type: RNA
Sample: in vitro
Concentration: 365 nM
Notes: natural RNA segment, single round, ends assumed
Relative to: no-protein control
Direction: higher = stronger binding
Measurement: RBNS enrichment (R)
Constant ends, left off below: GGGAGUUCUACAGUCCGACGAUC … UGGAAUUCUCGGGUGCCAA
Residues (chain): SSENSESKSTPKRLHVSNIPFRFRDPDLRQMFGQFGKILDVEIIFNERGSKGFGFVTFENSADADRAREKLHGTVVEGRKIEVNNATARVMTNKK
AAAAGUUAGCAGUUUGUUUUGUCAACUUGUAACUGGGUCAUAGCCUUGCUGAGUGAAACCAACUCAUUUCUGAUUGGGCACAAAGAACUGCAUUCUUUGGACGUGUGAAU: 0.427
UGCUAAAGGUUGUUCUCCUGGGGGAACAGAGUGACUGAAACUGGCUUGUUUGCUACAAGCCCUACCCUCCACUCUUUCAUUCCUUGAAAGCAGUUUGCCUGGUCAGUCAG: 0.733
GUCUGAGAGGAGCAUUUUCCUGGAAGGCCAUCUUUUAAGGCCCCUGCUUGCUGUCAUAGUGCAGAGCAGAAACUUGCACACUAUUUAGAGAGCUCCCUUCCCACCUCUCU: 1.04
CUCAGAUCCCUUAAAGGAUGAAGAGUUGGCUGUACACUUAGCGGACUUGCCUCUUGUAUGCAAGGACUACUGAUUGAAGUCUGUUUUGCUGUGUCUGGUUAUGUUGUCUG: 0.408
UAAGACUAAGAUCUGUCUUUUUGGUGACUAACACUUCAGUUCUUUCAACUCCUAUUAAUACCCAUAAUCAGUAACCUACCAAGAAAAGCCCGUAUUUGGAAAGUGUGGAG: 1.02
GUGGAAGUUGCUAGUGCAGUCUUGGUCUGAUGGCUGUGUGCAUCGCACAUUCGGCUUGGUGAAAUCCUUCUCUAAAGCCUCUUUUUGUAUUUUUAUAACUAAACAGAGGA: 0.672
GCACAGGGCAGUUAGCCAGCUCAAGUUCUUUUUCAGAGAAAGGGACUUGGCCAGUGGUUUAAGUACCUGCCCCUUCACCUCUCAGACGAGGCAGCUGACGAGGCAGCUGG: 0.361
GCAAAUCUGUCUUGCCAAGGAACUAGGAGCAACCGGAGGCAAAGGGAGUGGGUGGCCCCAUCACUAUUGGGACCAUCGCGUCCCUGCACAGCCCACACCCGGGGGCCCAG: 0.273

Set 2
Target: UBE2L6 UBC core domain (UniProt O14933)
Sequence of UniProt O14933 (whole entry, looked up): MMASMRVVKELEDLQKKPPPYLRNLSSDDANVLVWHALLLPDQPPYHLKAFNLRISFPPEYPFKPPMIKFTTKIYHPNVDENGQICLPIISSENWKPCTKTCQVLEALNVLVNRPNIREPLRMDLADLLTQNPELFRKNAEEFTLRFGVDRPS
Method: yeast two-hybrid
Sample: yeast
Notes: mostly zero background
Relative to: not given
Direction: higher = stronger interaction
Measurement: lacZ reporter activity
B1: TRIM34 RING domain (UniProt Q9BYJ4); chain ILLNVQEEVTCPICLELLTEPLSLDCGHSLCRACITVSNKEAVTSMGGKSSCPVCGISYSFEHLQA
B2: CBLL1 RING domain (UniProt Q75N03); chain GEKDDTPVHFCDKCGLPIKIYGRMIPCKHVFCYDCAILHEKKGDKMCPGCSDPVQRIEQCT
B3: SHPRH RING domain (UniProt Q149N8); chain KTSGGVNPEPCPICARQLGKQWAVLTCGHCFCNECISIIIEQYSVGSHRSSIKCAICRQTTSHKEISY
B4: RFPL3 RING domain (UniProt O75679); chain MAALFQEASSCPVCSDYLEKPMSLECGCTVCLKCINSLQKEPHGEDLLCCCCSMVSQRNKIRP
B5: RNF10 RING domain (UniProt Q8N5U6); chain VRICSHEVPSCPICLYPPTAAKITRCGHIFCWACILHYLSLSEKTWSKCPICYSSVHKKDLKS
B6: RNF17 RING domain (UniProt Q9BXT8); chain SQPWGAAEIQCTRCGRRVSRSSGHHCELQCGHAFCELCLLMTEECTTIICPDCEVATAVNTRQR
B7: RNF115 RING domain (UniProt Q9Y4L5); chain TQEQVDMGLECPVCKEDYTVEEEVRQLPCNHFFHSSCIVPWLELHDTCPVCRKSLNGEDSTR
B8: NHLRC1 RING domain (UniProt Q6VVB1); chain MREAEISLLECKVCFEKFGHRQQRRPRNLSCGHVVCLACVAALAHPRTLALECPFCRRACRGCDTSD
B1 (TRIM34 RING domain): 0
B2 (CBLL1 RING domain): 0
AAQLLEEKLTCAICLGLYQDPVTLPCGHNFCGACIRDWWDRCGKACPECREPFPDGAELR (TRIM65 RING domain (UniProt Q6PJ69)): 0
B3 (SHPRH RING domain): 0
B4 (RFPL3 RING domain): 0
B5 (RNF10 RING domain): 0
GSEEEEIPFRCFICRQAFQNPVVTKCRHYFCESCALEHFRATPRCYICDQPTGGIFNPA (RNF113B RING domain (UniProt Q8IZP6)): 0
B6 (RNF17 RING domain): 0
B7 (RNF115 RING domain): 0
VPADASPDSKCPICLDRFDNVSYLDRCLHKFCFRCVQEWSKNKAECPLCKQPFDSIFHSV (TOPORS RING domain (UniProt Q9NS56)): 2190
FLSKVEETFQCICCQELVFRPITTVCQHNVCKDCLDRSFRAQVFSCPACRYDLGRSYAMQ (UHRF1 RING domain (UniProt Q96T88)): 0
B8 (NHLRC1 RING domain): 0
EIKDYKARLTCPCCNMRKKDAVLTKCFHVFCFECVKTRYDTRQRKCPKCNAAFGANDFHR (RNF20 RING domain (UniProt Q5VTR2)): 0

Set 3
Target: CCNE1, cyclin fold, Cln2 fusion (human)
Method: yeast growth competition, sequencing
Sample: yeast
Notes: weak parent motif
Relative to: not given
Direction: higher = stronger binding
Measurement: normalised enrichment score
Parent: MASTL docking peptide (human); PMIAKNLMCELDE
PMIAKNLMCEGDE [L11G]: 0.19
PMIAKNLMCEHDE [L11H]: 0.208
PMIAKNLMCMLDE [E10M]: 0.31
PMIAKNLMCELLE [D12L]: -0.00969
PMIAKNLICELDE [M8I]: -0.106
PMIAKNIMCELDE [L7I]: 0.107
PMIAKNHMCELDE [L7H]: -0.932
PMTAKNLMCELDE [I3T]: 0.0797
PMIAKNLMFELDE [C9F]: 0.377
PMIAKNLMKELDE [C9K]: -0.0999
PMIAPNLMCELDE [K5P]: 0.108
PNIAKNLMCELDE [M2N]: -0.239
PMIAKNLMTELDE [C9T]: -0.163
PMIANNLMCELDE [K5N]: 0.488
PMIAKNLMCEIDE [L11I]: 0.0845
PIIAKNLMCELDE [M2I]: 0.0795
PMIAKNGMCELDE [L7G]: -0.563
PMITKNLMCELDE [A4T]: 0.0258
PMIPKNLMCELDE [A4P]: 0.211
PMIAKNLMCECDE [L11C]: -0.0435
PMIAKNLMSELDE [C9S]: 0.148
PKIAKNLMCELDE [M2K]: 0.229
PMIDKNLMCELDE [A4D]: -0.132
PMIAKNLMCCLDE [E10C]: -0.0861
PMHAKNLMCELDE [I3H]: -0.00917

Set 4
Target: JUND, bZIP domain (human)
Method: DHFR protein complementation
Sample: yeast
Notes: single substitutions, most at no-binding floor
Relative to: wild-type JUN-FOS pair
Direction: higher = stronger binding
Measurement: binding fitness
Parent: JUN, bZIP domain (human); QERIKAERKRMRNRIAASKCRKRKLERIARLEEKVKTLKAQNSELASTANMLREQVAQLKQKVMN
E44W: -1.25 natural log
L59H: -1.45 natural log
A49K: -1.29 natural log
L52H: -1.45 natural log
N42P: -1.41 natural log
R53W: -1.31 natural log
V35Q: -1.37 natural log
L45S: -1.39 natural log
L45G: -1.46 natural log
A49D: -1.44 natural log
L45E: -1.26 natural log

Some of these lines once more (set 2):
VPADASPDSKCPICLDRFDNVSYLDRCLHKFCFRCVQEWSKNKAECPLCKQPFDSIFHSV (TOPORS RING domain (UniProt Q9NS56)): 2190
AAQLLEEKLTCAICLGLYQDPVTLPCGHNFCGACIRDWWDRCGKACPECREPFPDGAELR (TRIM65 RING domain (UniProt Q6PJ69)): 0
B2 (CBLL1 RING domain): 0
B3 (SHPRH RING domain): 0
